Measured values from different studies.
Parts stem from different laboratories: compare values within a part only. Positions count from the first letter of the parent shown.

Block 1 — method: protein binding microarray; form: double-stranded DNA, one strand shown; sample: in vitro; tested at: not given; baseline: not given; reading: higher = stronger binding
Target: Histone acetyltransferase KAT6A, winged helix 1, GST fusion (KAT6A, Homo sapiens, UniProt Q92794, residues 1-85)
Notes: 8-mer, flanks averaged, mean of 2 arrays, mostly near background
Construct (chain): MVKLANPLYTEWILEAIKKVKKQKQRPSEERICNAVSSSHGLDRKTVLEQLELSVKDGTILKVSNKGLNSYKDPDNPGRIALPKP
| Sequence | E-score |
| --- | --- |
| ACCCAGTC | -0.00306 |
| TCCCATCA | -0.219 |
| GGCGCAAC | 0.215 |
| GTCCCACA | -0.0232 |
| ATAAGCGC | 0.275 |
| AAATACCT | -0.0866 |
| CGCGCTCC | 0.396 |
| TAGGTCCA | -0.21 |
| AGTTTTAA | -0.0697 |
| CGGGATAC | 0.246 |
| GATTACAC | -0.0234 |

Block 2 — target: CCNB3, cyclin fold, Cln2 fusion (human); method: yeast growth competition, sequencing; sample: yeast; notes: strong parent motif; baseline: not given; reading: higher = stronger binding
Parent: RBL2 docking peptide (human); STTRRRLFVENDS
| Substitution | normalised enrichment score |
| --- | --- |
| STTRRRLFRENDS [V9R] | 0.543 |
| STTFRRLFVENDS [R4F] | 1.37 |
| YTTRRRLFVENDS [S1Y] | 1.08 |
| STTRRRLTVENDS [F8T] | 0.125 |
| STTRRRLFHENDS [V9H] | 0.928 |
| STTTRRLFVENDS [R4T] | 0.623 |
| STTRRRYFVENDS [L7Y] | -0.368 |

Block 3 — method: RNA Bind-n-Seq; form: RNA; sample: in vitro; tested at: not given; notes: RNA with constant flanks, ends assumed; baseline: input RNA pool; reading: higher = stronger binding
Target: RING finger protein unkempt homolog, zinc fingers 1-6, GST-SBP tag (UNK, Homo sapiens, UniProt Q9C0B0, residues 30-357)
Sequence of UniProt Q9C0B0 (30-357, looked up): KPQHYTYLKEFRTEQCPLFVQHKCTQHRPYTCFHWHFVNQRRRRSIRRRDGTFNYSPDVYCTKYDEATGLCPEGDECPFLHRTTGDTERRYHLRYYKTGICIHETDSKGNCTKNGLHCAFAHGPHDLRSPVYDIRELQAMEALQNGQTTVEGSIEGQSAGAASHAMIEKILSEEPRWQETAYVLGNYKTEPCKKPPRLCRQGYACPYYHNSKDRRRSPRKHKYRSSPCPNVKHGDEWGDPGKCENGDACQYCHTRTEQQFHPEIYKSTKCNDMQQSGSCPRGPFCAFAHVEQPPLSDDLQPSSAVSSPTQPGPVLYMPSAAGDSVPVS
| Sequence | bound/input enrichment |
| --- | --- |
| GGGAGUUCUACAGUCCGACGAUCAUGGCAGCUCAUGUCAGUAGGGACAGAGUUAUAAAGAACUGUAUAGCCCAGACCUCAGCAGCCGUAAAAAGUCUCCGAGAAGAGAGAGAAAAGAACCUGGAUGACUUAACGUUAUUAAAGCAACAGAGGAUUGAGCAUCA | 0.329 ratio |
| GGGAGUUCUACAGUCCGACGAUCACUGAAUUAAAUCAUCAUGCAUAUUUAUUUCUCCAAAGCACCUUUGACAAGCAUGAUUUGGACCGAGACUGUGCUUUGUCACCUGAUGAGCUUAAAGAUUUAUUUAAAGUUUUCCCUUACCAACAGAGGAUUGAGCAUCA | 0.222 ratio |
| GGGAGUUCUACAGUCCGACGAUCAUAAGCUGCACUAGGUAUUCACAAAUGGAUCCAAGAUAAAAUCAUUUUUCUGAAACUUUUUUCCGUGAGAUGGUUUUCCAGCAAAUAGCAUUUACAAGAUAAAGUGAUUAUGUUUUUAACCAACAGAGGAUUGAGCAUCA | 3.55 ratio |
| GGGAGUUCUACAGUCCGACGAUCAAAAGACCAUAUGUUGAUUCUACCUGUGUUCUGUUCCAGCGAAUUGGGAAGUCUCACCAAGCCCGAUUGUCUACCAUCAGCCCAGAACUCUGUAACUUUUCAGAACUGCUAUACUCAAACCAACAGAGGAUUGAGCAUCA | 0.157 ratio |
| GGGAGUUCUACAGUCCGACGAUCCCGUGUGACCCUUGGGCUUUCAGCGUGCACUCAGUUCCGUAGGAUUCCAAAGCAGACCCCCCGCUGGUCUUUGAAUCUGCAUGUACUUCACGUUUUCUAUAUUUGUAACUUUGCAUGUAUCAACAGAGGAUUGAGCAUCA | 0.143 ratio |

Other studies, line by line
| Molecule | target | test | test system | setting | scale | measurement | result |
| --- | --- | --- | --- | --- | --- | --- | --- |
| PhoQ, residues 284 288 289 292 302 303 TASMAF | PhoP, residues 12 14 15 18 19 HHYTI (Escherichia coli, UniProt P23836) | Sort-seq, measured: YFP reporter | E. coli | PhoQ-PhoP variant library, together with: 10 µM Mg2+ | baseline: high Mg2+ state, higher = stronger signaling | fold induction | 4.43 |

Excerpt of the above (block 2):
| Substitution | normalised enrichment score |
| --- | --- |
| YTTRRRLFVENDS [S1Y] | 1.08 |
